Measured values collected from several papers.
Each numbered part is a random draw from the data of one study; scales do not carry over between parts. Several values in a cell are separate wells, animals, samples, runs or records.
Chain of UniProt Q13464 (whole entry, looked up): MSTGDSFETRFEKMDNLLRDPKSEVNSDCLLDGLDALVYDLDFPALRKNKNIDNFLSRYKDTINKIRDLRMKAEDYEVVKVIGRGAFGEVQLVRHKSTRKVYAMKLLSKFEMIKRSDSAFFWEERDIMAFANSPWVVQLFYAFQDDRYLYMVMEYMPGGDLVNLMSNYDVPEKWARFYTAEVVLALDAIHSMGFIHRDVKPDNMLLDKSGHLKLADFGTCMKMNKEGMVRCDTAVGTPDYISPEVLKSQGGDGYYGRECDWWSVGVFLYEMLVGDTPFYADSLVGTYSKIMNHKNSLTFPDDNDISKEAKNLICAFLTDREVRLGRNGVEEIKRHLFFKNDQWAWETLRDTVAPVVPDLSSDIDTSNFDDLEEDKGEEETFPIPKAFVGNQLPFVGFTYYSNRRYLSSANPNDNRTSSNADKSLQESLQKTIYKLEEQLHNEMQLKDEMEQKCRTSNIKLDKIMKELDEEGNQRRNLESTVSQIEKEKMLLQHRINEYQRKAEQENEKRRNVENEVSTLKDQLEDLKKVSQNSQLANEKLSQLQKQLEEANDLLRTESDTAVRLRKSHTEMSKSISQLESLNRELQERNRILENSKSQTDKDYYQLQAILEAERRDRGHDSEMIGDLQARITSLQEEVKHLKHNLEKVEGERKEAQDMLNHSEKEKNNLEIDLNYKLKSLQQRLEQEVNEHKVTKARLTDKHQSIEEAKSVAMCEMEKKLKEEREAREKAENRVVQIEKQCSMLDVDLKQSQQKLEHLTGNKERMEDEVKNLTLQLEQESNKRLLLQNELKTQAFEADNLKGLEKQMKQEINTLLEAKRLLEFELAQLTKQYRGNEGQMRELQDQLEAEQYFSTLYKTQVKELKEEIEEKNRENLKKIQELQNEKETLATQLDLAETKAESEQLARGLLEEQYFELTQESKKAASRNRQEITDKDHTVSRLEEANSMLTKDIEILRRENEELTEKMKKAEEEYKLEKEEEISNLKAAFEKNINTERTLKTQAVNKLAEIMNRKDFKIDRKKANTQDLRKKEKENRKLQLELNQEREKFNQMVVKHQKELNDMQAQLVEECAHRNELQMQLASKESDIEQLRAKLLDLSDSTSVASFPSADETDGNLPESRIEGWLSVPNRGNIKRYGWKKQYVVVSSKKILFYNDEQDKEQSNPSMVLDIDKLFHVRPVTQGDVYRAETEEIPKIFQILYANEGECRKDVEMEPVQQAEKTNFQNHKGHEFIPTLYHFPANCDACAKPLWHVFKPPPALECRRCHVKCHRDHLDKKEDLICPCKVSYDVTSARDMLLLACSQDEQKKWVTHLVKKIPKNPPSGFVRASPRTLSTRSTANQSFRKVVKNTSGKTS
Chain of UniProt Q86UE8 (whole entry, looked up): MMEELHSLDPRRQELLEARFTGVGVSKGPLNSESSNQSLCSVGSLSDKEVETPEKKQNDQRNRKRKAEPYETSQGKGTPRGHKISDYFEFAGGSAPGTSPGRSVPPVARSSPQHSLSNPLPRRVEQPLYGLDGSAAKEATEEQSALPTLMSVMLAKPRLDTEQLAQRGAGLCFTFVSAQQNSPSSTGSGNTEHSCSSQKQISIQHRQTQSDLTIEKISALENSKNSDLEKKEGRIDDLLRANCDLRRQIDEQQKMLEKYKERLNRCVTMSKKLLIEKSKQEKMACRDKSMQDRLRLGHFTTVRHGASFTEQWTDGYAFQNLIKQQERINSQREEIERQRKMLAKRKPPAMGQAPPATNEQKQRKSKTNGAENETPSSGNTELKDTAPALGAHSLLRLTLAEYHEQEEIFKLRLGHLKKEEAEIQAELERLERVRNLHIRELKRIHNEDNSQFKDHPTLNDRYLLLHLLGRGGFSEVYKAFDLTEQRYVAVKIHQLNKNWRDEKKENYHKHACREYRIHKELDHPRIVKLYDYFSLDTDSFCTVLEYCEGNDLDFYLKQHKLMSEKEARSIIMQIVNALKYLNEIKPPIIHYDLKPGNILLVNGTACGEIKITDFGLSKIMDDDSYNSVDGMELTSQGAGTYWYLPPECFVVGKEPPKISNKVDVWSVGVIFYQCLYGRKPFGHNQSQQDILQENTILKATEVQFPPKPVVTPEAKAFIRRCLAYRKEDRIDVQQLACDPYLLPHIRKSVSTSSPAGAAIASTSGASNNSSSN
Chain of UniProt Q15303 (whole entry, looked up): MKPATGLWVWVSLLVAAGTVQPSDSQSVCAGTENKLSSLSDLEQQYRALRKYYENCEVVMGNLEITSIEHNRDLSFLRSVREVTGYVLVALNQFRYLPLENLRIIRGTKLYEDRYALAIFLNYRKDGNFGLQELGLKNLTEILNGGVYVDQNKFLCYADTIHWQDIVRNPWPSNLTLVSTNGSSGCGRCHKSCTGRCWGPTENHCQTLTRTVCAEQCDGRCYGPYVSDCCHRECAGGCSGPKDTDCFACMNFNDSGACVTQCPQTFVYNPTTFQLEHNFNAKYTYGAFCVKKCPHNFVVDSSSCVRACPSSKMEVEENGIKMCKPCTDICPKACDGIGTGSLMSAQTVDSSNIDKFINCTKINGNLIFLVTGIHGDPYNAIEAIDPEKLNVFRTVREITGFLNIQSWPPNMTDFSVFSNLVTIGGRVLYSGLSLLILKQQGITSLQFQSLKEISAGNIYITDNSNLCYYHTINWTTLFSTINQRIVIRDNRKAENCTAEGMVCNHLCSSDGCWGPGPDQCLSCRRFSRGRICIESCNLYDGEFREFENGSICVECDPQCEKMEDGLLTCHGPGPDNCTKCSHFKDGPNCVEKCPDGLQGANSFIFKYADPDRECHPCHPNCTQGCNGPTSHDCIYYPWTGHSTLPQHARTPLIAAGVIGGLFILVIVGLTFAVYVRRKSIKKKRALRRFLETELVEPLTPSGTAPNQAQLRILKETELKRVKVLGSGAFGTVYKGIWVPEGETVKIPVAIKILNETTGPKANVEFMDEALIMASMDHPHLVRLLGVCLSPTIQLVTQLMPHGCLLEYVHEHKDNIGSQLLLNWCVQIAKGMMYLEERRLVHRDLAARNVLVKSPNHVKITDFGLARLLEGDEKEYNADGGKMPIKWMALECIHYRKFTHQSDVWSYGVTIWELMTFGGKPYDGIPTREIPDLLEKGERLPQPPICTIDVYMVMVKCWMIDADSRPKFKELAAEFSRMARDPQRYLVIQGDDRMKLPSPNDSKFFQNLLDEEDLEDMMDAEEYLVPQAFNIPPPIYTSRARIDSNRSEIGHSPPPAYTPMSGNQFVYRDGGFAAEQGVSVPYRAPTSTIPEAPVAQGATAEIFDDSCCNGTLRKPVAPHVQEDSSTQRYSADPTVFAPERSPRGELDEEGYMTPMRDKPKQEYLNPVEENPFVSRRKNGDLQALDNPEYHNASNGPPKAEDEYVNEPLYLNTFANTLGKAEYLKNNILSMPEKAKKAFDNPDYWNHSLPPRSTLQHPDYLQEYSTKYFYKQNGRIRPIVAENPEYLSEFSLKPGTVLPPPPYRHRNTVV
Chain of UniProt P51956 (whole entry, looked up): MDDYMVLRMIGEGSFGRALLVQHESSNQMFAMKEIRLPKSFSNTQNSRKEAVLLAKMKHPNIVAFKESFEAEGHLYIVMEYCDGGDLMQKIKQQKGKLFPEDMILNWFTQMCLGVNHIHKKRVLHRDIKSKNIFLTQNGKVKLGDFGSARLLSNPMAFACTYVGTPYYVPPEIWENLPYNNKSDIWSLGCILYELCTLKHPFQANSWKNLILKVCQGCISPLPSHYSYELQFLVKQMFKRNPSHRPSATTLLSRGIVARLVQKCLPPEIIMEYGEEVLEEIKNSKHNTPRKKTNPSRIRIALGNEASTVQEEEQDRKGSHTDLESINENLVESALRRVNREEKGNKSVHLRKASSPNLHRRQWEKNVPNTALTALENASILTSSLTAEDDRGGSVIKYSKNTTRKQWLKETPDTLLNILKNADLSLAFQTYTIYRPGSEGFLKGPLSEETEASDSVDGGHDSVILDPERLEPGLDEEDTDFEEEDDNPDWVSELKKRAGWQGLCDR
Chain of UniProt P42681 (whole entry, looked up): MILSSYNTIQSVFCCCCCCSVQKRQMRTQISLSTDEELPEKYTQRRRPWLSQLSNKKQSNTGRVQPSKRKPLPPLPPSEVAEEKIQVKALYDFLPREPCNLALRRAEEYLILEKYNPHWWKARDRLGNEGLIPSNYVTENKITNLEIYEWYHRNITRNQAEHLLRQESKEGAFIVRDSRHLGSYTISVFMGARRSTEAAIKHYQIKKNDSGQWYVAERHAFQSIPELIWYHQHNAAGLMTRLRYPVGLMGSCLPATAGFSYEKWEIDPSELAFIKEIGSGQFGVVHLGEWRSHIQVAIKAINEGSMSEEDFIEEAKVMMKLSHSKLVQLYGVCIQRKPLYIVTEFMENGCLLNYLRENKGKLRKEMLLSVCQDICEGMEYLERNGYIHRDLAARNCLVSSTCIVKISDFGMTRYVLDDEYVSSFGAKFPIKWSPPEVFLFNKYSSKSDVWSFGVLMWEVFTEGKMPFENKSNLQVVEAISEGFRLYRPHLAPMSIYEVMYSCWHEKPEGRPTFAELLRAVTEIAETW
Chain of UniProt Q16539 (whole entry, looked up): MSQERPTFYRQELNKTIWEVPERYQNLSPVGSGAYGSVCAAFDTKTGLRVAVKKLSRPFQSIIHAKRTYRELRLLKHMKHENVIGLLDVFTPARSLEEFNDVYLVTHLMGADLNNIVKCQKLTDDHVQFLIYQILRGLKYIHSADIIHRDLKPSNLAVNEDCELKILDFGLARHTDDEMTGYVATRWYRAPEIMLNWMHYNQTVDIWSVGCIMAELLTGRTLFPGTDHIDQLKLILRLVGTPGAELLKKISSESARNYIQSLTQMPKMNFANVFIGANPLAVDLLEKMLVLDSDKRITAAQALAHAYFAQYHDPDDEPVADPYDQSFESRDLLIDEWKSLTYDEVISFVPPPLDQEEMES

Block 1
Cell line: mouse MPNST tumor cells
Method: high-content immunofluorescence imaging
Measured: nuclear SOX9
Concentration: 10 µM
Time: 12 h
Notes: mean of 2 replicates
Relative to: DMSO control
Direction: higher = more nuclear SOX9
| Structure (SMILES) | nuclear SOX9 intensity |
| --- | --- |
| NS(=O)(=O)c1cc2c(cc1C(F)(F)F)NCNS2(=O)=O | 103 % of DMSO |
| CN1CCC(=C2c3ccccc3CCc3cccnc32)CC1 | 97.5 % of DMSO and 97 % of DMSO |
| COc1cc(N2CCOCC2)ccc1Nc1ncc(F)c(Nc2ccccc2NS(C)(=O)=O)n1 | 93.9 % of DMSO |
| O=C1C=CC(=O)C2=C1C1c3ccccc3C2c2ccccc21 | 93.2 % of DMSO |
| COc1nc2sc(C(=O)NC3CC3)c(N)c2c(C)c1Cl | 88.3 % of DMSO |
| CCCc1cc(C)n(C)c(=O)c1CN(C)C(=O)c1cc(-c2ccc(N3CCN(C(C)C)CC3)nc2)cc2c1cnn2C(C)C | 135 % of DMSO |
| C=CCOC(Cn1ccnc1)c1ccc(Cl)cc1Cl (stereo not drawn) | 105 % of DMSO |
| CC(NC(=O)Cc1cc(F)cc(F)c1)C(=O)NC(C(=O)OC(C)(C)C)c1ccccc1 (stereo not drawn) | 102 % of DMSO |
| Cc1ccc(-c2cnccc2-c2cnc(Nc3ccc(O)cc3)s2)c(Cl)c1 | 219 % of DMSO |
| Cc1cc(C(=O)NNCc2ccccc2)no1 | 101 % of DMSO |
| CC(C)(C)n1nc(-c2ccc(Cl)cc2)c2c(N)ncnc21 | 151 % of DMSO |

Block 2
SMILES: COc1cc2c(Nc3ccc(Br)cc3F)ncnc2cc1OCC1CCN(C)CC1
Effect on: enzyme activity
Action: inhibitor
Concentration: 0.5 µM
Relative to: control
| target | remaining activity |
| --- | --- |
| CLK4 (Homo sapiens, UniProt Q9HAZ1) | 84.3% |
| MARK2 (Homo sapiens, UniProt Q7KZI7) | 107% |
| RPS6KA4 (Homo sapiens, UniProt O75676) | 110% |
| DCLK2 (Homo sapiens, UniProt Q8N568) | 104% |
| CDC42BPB (Homo sapiens, UniProt Q9Y5S2) | 98% |
| PNCK (Homo sapiens, UniProt Q6P2M8) | 99.5% |
| Cyclin-dependent kinase 1, with cyclin A (CDK1, Homo sapiens, UniProt P06493) | 100% |
| MARK4 (Homo sapiens, UniProt Q96L34) | 99.4% |
| MAPK14 (Homo sapiens, UniProt Q16539) | 91.8% |
| Myosin-IIIb (MYO3B, Homo sapiens, UniProt Q8WXR4) | 84.2% |
| MAP2K1 (Homo sapiens, UniProt Q02750) | 105% |
| TXK (Homo sapiens, UniProt P42681) | 57.5% |
| MAPK1 (Homo sapiens, UniProt P28482) | 99.1% |
| TLK2 (Homo sapiens, UniProt Q86UE8) | 79.7% |
| NEK3 (Homo sapiens, UniProt P51956) | 103% |
| PRKG2 (Homo sapiens, UniProt Q13237) | 101% |
| ROCK1 (Homo sapiens, UniProt Q13464) | 99.4% |
| GRK4 (Homo sapiens, UniProt P32298) | 102% |
| DDR2 (Homo sapiens, UniProt Q16832) | 68% |
| AKT2 (Homo sapiens, UniProt P31751) | 110% |

Block 3
SMILES: COCCOc1nc(-c2ccc(Cl)nc2)nc2c1CN(C(=O)c1ncn3ccccc13)CC2
Concentration: 0.1 µM
| target | test | remaining binding [%] |
| --- | --- | --- |
| ERBB4 (Homo sapiens, UniProt Q15303) | cell-free assay, competition with immobilised ligand | 80 |
| CDK19 (Homo sapiens, UniProt Q9BWU1) | competition binding | 63 |
| NUAK1 (Homo sapiens, UniProt O60285) | cell-free assay, competition with immobilised ligand | 100 |
| CSNK1G1 (Homo sapiens, UniProt Q9HCP0) | cell-free assay, competition with immobilised ligand | 100 |
| PLK1 (Homo sapiens, UniProt P53350) | cell-free assay, competition with immobilised ligand | 100 |
| Ribosomal protein S6 kinase alpha-1, N-terminal kinase domain (RPS6KA1, Homo sapiens, UniProt Q15418) | cell-free assay, competition with immobilised ligand | 100 |
| AKT3 (Homo sapiens, UniProt Q9Y243) | binding, competition with immobilised ligand | 47 |
| PTK2B (Homo sapiens, UniProt Q14289) | cell-free assay, competition with immobilised ligand | 100 |
| RET (Homo sapiens, UniProt P07949) | cell-free assay, competition with immobilised ligand | 88 |
| MAP3K10 (Homo sapiens, UniProt Q02779) | cell-free assay, competition with immobilised ligand | 100 |

Block 4
Species: human
Matrix: microsomes or S9
Concentration: 2 µM
Time: 0.5 h
| SMILES | remaining compound |
| --- | --- |
| CC(C)(NCc1ccncc1Cl)c1ccc(F)cc1Cl | 0% |
| Cc1ccccc1S(=O)(=O)Nc1ccc2nc(N3CCN(CC(=O)NC(C)(C)C)CC3)cc(C(=O)O)c2c1 | > 99% |
| CCN(CC)S(=O)(=O)c1ccc(C(=O)Nc2sc3c(c2C(N)=O)CC(C)(C)NC3(C)C)cc1 | 9.34% |
| O=C(C1CCCN(S(=O)(=O)c2cc(Cl)ccc2Cl)C1)N1CCCCC1 (stereo not drawn) | 10.4% |
| O=C(c1ccc(-c2ncc[nH]2)s1)N1CC[C@@H](c2ccc(F)cc2)[C@H](O)C1 | 21.5% |
| CC(C)OC(=O)N1CCC(CNc2ncnc3c(-c4ccc(S(C)(=O)=O)cc4)csc23)CC1 | 84.7% |
| O=C1CCCC2=C1C(c1ccc3c(c1)OCO3)Nc1ccc(C(=O)c3ccccc3)cc1N2 (stereo not drawn) | 18.6% |
| COc1cc(-c2nn([C@H]3CC[C@H](N4CCN(C(C)=O)CC4)CC3)c3ncnc(N)c23)ccc1NC(=O)c1cc2ccccc2n1C | 93.2% |
| CC/C(=C(\c1ccccc1)c1ccc(OCCN(C)C)cc1)c1ccccc1 | 55.6% |
| Cc1cc(C23CC4CC(CC(C4)C2)C3)cc2sc(N)nc12 | 75.7% |
